Published values from different studies.
A part holds a random share of what one study measured. Changes are numbered by the printed parent chain.

Study 1
Target: Interferon regulatory factor 7, full length, phosphomimetic (IRF7, Homo sapiens, UniProt Q92985, residues 1-503, S471D/S472D/S475D/S476D/S477D/S483D/S484D/S487D)
Sequence of UniProt Q92985 (whole entry, unmodified, looked up): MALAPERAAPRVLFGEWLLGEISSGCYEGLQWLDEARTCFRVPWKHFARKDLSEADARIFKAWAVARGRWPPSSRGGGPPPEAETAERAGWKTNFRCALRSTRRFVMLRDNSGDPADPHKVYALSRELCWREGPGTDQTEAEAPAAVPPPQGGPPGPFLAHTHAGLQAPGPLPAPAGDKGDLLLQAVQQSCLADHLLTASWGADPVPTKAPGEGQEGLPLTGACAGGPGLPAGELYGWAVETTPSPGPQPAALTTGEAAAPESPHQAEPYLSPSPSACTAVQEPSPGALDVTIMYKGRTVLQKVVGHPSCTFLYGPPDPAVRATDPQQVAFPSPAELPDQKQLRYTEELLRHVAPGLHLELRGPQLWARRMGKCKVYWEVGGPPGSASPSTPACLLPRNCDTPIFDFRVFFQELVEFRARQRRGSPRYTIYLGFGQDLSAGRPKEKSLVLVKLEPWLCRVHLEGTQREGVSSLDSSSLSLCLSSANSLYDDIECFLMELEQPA
Technique: protein-binding microarray
Molecule type: double-stranded DNA, one strand shown
Matrix: in vitro
Concentration: 2200 nM top
Notes: 60-bp whole probe
Added: salmon DNA 0.4 mg/ml
Reference: random background probes
Reading: higher = stronger binding
Constant ends, left off below: GCCTAGCAC … GTCTTGATTCGCTTGACGCTGCTG
| Sequence | fitted relative affinity |
| --- | --- |
| ATAGGTTTCGGGACTGGGTTAGTGCTA | 3.49 z-score |
| TCAGATTACATATATGTTACTGTGCTA | 0.671 z-score |
| TCATTTTTATTTATAAAACTGTGCTAG | 0.643 z-score |
| TCAATACTCGTTTACATACTGTGCTAG | 1.31 z-score |
| GACGCTATCGGACTGGGGACGTGCTAG | -0.109 z-score |
| GACGGTATCCTTCTACTGACGTGCTAG | 1.09 z-score |
| TTAGTTATCGACTATCGGTTAGTGCTA | 0.827 z-score |
| GACGGACAGGACTTTCGGGACGTGCTA | 1.94 z-score |
| GACGATATCAGACTAGAGACGTGCTAG | -0.0261 z-score |
| TTAGGTGTCGGTATCGGTTAGTGCTAG | 0.428 z-score |
| GACGAACTGGGGATTCGAGACGTGCTA | 0.153 z-score |
| TGAGATATCGGGTTTCGATTAGTGCTA | 2.37 z-score |
| TCATGTATGGGCATTTTTACTGTGCTA | -0.0627 z-score |
| GACGATCGCAGTATCGAGACGTGCTAG | -0.196 z-score |
| GACGAACTGGGGTATCGAAACGTGCTA | 0.477 z-score |
| GACGGACTGGACTATCCGGACGTGCTA | -0.53 z-score |
| TCAGATCTGCCGTCCCACACTGTGCTA | 1.12 z-score |
| AAGCAGTTACTCTAGAGGCCGTGCTAG | -0.575 z-score |
| TCTTTTTGCTTTCTTTTATGGTGCTAG | 3.74 z-score |
| TCATTTTTTTTCATCATTGCGTGCTAG | 1.69 z-score |
| GACGGTTTCGGACTCGGGACGTGCTAG | 3.81 z-score |
| TCAGTTTTGTGTCTGGGACTGTGCTAG | 2.01 z-score |
| TCAGGTATTTTTTTCTAACTGTGCTAG | 0.637 z-score |
| TCATTATTCTAGCCTCCAACTGTGCTA | 1.59 z-score |
| GACCGACTGGGACTGGGGACGTGCTAG | -0.901 z-score |

Study 2
Target: TAR DNA-binding protein 43, full length, His tag (TARDBP, Homo sapiens, UniProt Q13148, residues 1-414)
Technique: RNA Bind-n-Seq
Molecule type: RNA
Matrix: in vitro
Concentration: 20 nM
Notes: 6-mer, flanks averaged, single round
Added: 150 mM KCl
Reference: input library
Reading: higher = stronger binding
| Sequence | 6-mer enrichment (R) |
| --- | --- |
| AUAAAU | 0.718 |
| UCGUUA | 0.553 |
| CCCUUC | 0.62 |
| AGUUUU | 0.642 |
| AGGCAA | 0.889 |
| GGCUCC | 0.891 |
| CAAGGG | 2.27 |
| ACAGUG | 0.958 |
| CUUCAG | 0.618 |
| CUUAUU | 0.611 |
| AAGAGU | 0.916 |
| CGACCG | 0.857 |
| GAACGU | 0.85 |
| UUCAAG | 0.641 |
| GGUAAG | 1.82 |
| GCCCGA | 0.841 |
| UCAGGA | 0.852 |
| GCGCAU | 0.937 |
| UAGUUU | 0.641 |
| GGAUAA | 0.963 |

Study 3
Target: ABI1, truncated, D143A, DHFR fusion (Arabidopsis thaliana)
Technique: DHFR PCA, deep sequencing
Matrix: yeast
Notes: methotrexate growth selection, single substitutions
Added: (+)-ABA 710 µM
Reference: wild-type fitted maximum
Reading: higher = stronger binding
Starting sequence: PYL1, truncated, DHFR fusion (Arabidopsis thaliana); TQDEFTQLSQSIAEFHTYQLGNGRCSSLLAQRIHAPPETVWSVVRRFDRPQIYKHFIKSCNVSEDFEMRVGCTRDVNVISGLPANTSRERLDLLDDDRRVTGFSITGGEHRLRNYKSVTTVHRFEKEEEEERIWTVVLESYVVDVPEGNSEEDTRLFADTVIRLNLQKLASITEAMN
| Change | relative binding score [%] |
| --- | --- |
| V136H | 86 |
| T39N | 90.5 |
| H110Y | 14.5 |
| V137E | -6.98 |
| R155L | 95.4 |
| N85H | 101 |
| D153Q | 86.7 |
| V136M | 103 |
| E64A | 105 |
| T106W | 97.3 |
| N61M | 101 |
| E147F | 95.5 |
| W134I | 112 |
| L82N | 30.1 |
| A13V | 100 |
| T86Y | 98.4 |
| I52A | 108 |
| L8R | 91.8 |
| E38Y | 81.3 |

Study 4
Target: Ras GTPase-activating protein-binding protein 1, C-terminal RGG region (G3BP1, Homo sapiens, UniProt Q13283)
Sequence of UniProt Q13283 (whole entry, looked up): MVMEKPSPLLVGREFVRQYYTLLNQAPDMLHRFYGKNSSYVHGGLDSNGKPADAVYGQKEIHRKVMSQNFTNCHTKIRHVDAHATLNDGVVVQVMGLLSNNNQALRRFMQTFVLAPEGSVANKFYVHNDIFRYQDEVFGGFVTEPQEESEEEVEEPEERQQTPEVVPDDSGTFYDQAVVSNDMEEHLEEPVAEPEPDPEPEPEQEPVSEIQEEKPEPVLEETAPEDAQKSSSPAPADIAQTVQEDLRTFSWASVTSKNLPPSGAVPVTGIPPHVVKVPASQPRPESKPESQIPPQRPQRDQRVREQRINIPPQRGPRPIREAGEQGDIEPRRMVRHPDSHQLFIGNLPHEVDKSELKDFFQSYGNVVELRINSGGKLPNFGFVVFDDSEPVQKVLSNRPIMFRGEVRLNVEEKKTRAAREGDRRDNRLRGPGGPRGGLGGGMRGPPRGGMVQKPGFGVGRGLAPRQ
Technique: RNA Bind-n-Seq
Molecule type: RNA
Matrix: in vitro
Concentration: 1 µM
Notes: whole 134-nt RNA, ends assumed
Added: 150 mM KCl
Reference: input library
Reading: higher = stronger binding
Constant ends, left off below: GGGAGUUCUACAGUCCGACGAUC … UGGAAUUCUCGGGUGUCAAGG
| Sequence | log2 enrichment |
| --- | --- |
| UGGCCCUGGUGGCAUGCGGGGAGGAAGAGGUGGCCUCAUGGAUCGUGGUGGUCCCGGUGGAAUGUUCAGAGGUGGCCGUGGUGGAGACAA | 2.43 |
| AAGUCCUGUGCUACACAUCGUAUGUACCGAAUCGGGGCCCCGGGCCCCGGCCCCGGAAAGUAUUAUGUUACGCCGUUCGGAUCUGCACUU | -1.97 |
| CCUGUGCUACACAUCGUAUGUACCGAAUCGGCCCCCCGGGGCCCCCCGGGGCCCCCCGGGGAAAGUAUUAUGUUACGCCGUUCGGAUCUG | -2.23 |
| GUCCUGUGCUACACAUCGUAUGUACCGAAUCGGCCCCCCGGGCCCCCCGGGCCCCCCGGAAAGUAUUAUGUUACGCCGUUCGGAUCUGCA | -1.28 |
| CUGUGCUACACAUCGUAUGUACCGAAUCGGGCCCCCCCGGCCCCCCCGGGGCCCCCCCGGGAAAGUAUUAUGUUACGCCGUUCGGAUCUG | -1.66 |
| CAAGUCCUGUGCUACACAUCGUAUGUACCGAAUCGGUUUGGGGUUUGGGUUUGGGGAAAGUAUUAUGUUACGCCGUUCGGAUCUGCACUU | -0.732 |
| AGUCCUGUGCUACACAUCGUAUGUACCGAAUCGGCCCCGGGGCCCCGGGGCCCCGGGAAAGUAUUAUGUUACGCCGUUCGGAUCUGCACU | -1.69 |
| CUCAAGUCCUGUGCUACACAUCGUAUGUACCGAAUCGGUGGAAAGGAAAAAGGAAAGUAUUAUGUUACGCCGUUCGGAUCUGCACUUCCA | -1.28 |

Study 5
Target: Histone acetyltransferase KAT6A, both winged helices, GST fusion (KAT6A, Homo sapiens, UniProt Q92794, residues 1-181)
Technique: protein binding microarray
Molecule type: double-stranded DNA, one strand shown
Matrix: in vitro
Concentration: not given
Notes: 8-mer, flanks averaged, mean of 2 arrays, mostly near background
Reference: not given
Reading: higher = stronger binding
Residues (chain): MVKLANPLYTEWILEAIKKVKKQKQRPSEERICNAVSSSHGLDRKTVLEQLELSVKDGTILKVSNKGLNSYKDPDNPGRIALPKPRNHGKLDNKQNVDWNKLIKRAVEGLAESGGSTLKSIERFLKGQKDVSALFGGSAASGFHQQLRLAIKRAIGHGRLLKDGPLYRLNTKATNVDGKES
| Sequence | E-score |
| --- | --- |
| CTGCCGTC | 0.182 |
| GCACACCA | -0.034 |
| ACCTCGCA | -0.0384 |
| ACATCTGC | -0.0891 |
| AAGCAGGG | -0.162 |
| TACGCGTA | 0.351 |
| CCCATTCA | -0.248 |
| CACAACAA | 0.00991 |
| CACTCGGA | 0.0298 |
| GCTTAGTA | 0.091 |
| AATTTAAG | -0.127 |
| GTCATAGA | 0.015 |
| CCCCGGAG | 0.0498 |
| CATAACAA | -0.0223 |
| GATACAGC | -0.00274 |
| ATGAAAAA | -0.0157 |
| ATATAATA | -0.0665 |
| CTCCCCAC | -0.157 |
| AAAGTAGC | -0.136 |
| ATAACGCA | -0.00212 |
| AACCCTCC | -0.0973 |
| AACGCCCT | 0.0236 |
| CGCTAAAC | 0.229 |
| GTGGACAC | -0.00656 |
| ACTACAAC | -0.0523 |

Other studies, line by line
CCNB2: CCNB2, cyclin fold, Cln2 fusion (human)
P1: SGO1 docking peptide (human); PLAKRALKYTDEK; partner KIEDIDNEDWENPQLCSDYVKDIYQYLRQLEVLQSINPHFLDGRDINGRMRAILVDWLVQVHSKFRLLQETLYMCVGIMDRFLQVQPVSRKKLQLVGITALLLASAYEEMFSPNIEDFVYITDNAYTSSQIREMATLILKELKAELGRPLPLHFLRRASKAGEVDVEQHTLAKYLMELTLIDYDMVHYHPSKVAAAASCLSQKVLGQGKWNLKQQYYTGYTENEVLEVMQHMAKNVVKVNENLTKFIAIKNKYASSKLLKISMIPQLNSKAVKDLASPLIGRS
| Molecule | target or system | assay | system | setting | scale | endpoint | value |
| --- | --- | --- | --- | --- | --- | --- | --- |
| P1 P1A | CCNB2 | yeast growth competition, sequencing | yeast | weak parent motif | reference: not given, higher = stronger binding | normalised enrichment score | 0.577 |
| ARKRLELGNLGNPQ | Saccharomyces cerevisiae | binding, competitive growth deep sequencing | peptide, cyclin E1-Cln2 fusion strain | concentration not given, tiling library, Cln2 subtracted | direction not given | growth enrichment score | -0.252 |
| P1 K4A | CCNB2 | yeast growth competition, sequencing | yeast | weak parent motif | reference: not given, higher = stronger binding | normalised enrichment score | 0.176 |

Some of these lines once more (study 4):
| Sequence | log2 enrichment |
| --- | --- |
| UGGCCCUGGUGGCAUGCGGGGAGGAAGAGGUGGCCUCAUGGAUCGUGGUGGUCCCGGUGGAAUGUUCAGAGGUGGCCGUGGUGGAGACAA | 2.43 |
| AAGUCCUGUGCUACACAUCGUAUGUACCGAAUCGGGGCCCCGGGCCCCGGCCCCGGAAAGUAUUAUGUUACGCCGUUCGGAUCUGCACUU | -1.97 |
| CCUGUGCUACACAUCGUAUGUACCGAAUCGGCCCCCCGGGGCCCCCCGGGGCCCCCCGGGGAAAGUAUUAUGUUACGCCGUUCGGAUCUG | -2.23 |
| GUCCUGUGCUACACAUCGUAUGUACCGAAUCGGCCCCCCGGGCCCCCCGGGCCCCCCGGAAAGUAUUAUGUUACGCCGUUCGGAUCUGCA | -1.28 |
| CUGUGCUACACAUCGUAUGUACCGAAUCGGGCCCCCCCGGCCCCCCCGGGGCCCCCCCGGGAAAGUAUUAUGUUACGCCGUUCGGAUCUG | -1.66 |
| CAAGUCCUGUGCUACACAUCGUAUGUACCGAAUCGGUUUGGGGUUUGGGUUUGGGGAAAGUAUUAUGUUACGCCGUUCGGAUCUGCACUU | -0.732 |
| AGUCCUGUGCUACACAUCGUAUGUACCGAAUCGGCCCCGGGGCCCCGGGGCCCCGGGAAAGUAUUAUGUUACGCCGUUCGGAUCUGCACU | -1.69 |
| CUCAAGUCCUGUGCUACACAUCGUAUGUACCGAAUCGGUGGAAAGGAAAAAGGAAAGUAUUAUGUUACGCCGUUCGGAUCUGCACUUCCA | -1.28 |
